Measurements pooled from the literature.
Protocols differ between the studies behind these lines. “And” joins repeats or separate records; there may be more than shown. Numbers after ± are the reported error.

SMILES	test	system	setting	how to read	measurement	result
Oc1ccc(/C=C/c2cc(O)cc(O)c2)cc1		rat, azoxymethane-injected, blood at sacrifice	10 mg/kg		cholinesterase	7 IU/L and 6 IU/L
COc1ccc2nc(-c3ccccn3)c(N(C)c3ccc(F)cc3)n2c1		CD1 mouse, male, fasted, plasma	oral, 50 mg/kg, together with: ABT 50 mg/kg		MRT(0-last)	1.13 h
O=C1NCCc2nc(OCc3cccc(F)c3)ccc21	measured: Tremors	Sprague-Dawley rat, male	oral, 100 mg/kg, 1 h, score 0 none to 2 full	direction not given	Irwin test score	0
[18F]c1ccc(-c2ccc3c(c2)[nH]c2ccncc23)cn1	ex vivo biodistribution	B6SJL mouse, normal, muscle	intravenous, 30 min		SUV	0.256 ± 0.057
O=C1c2ccccc2C(=O)N1CCCc1nc(-c2cccc([N+](=O)[O-])c2)no1		octanol/buffer	pH 11		logP	2.27
COc1ccc(C(O)COc2ccc(-c3csc(-c4ccc(OCC(O)c5ccc(OC)c(OC)c5)cc4)n3)cc2)cc1OC (centres unmarked)		C57BL/6J mice, plasma	oral, 10 mg/kg		tlast	48 h
Nc1nc(NC2CC2)c2ncn([C@H]3C=C[C@@H](CO)C3)c2n1		Tat+ transgenic mouse, striatum	subcutaneous osmotic pump, dose not given, 5 d		drug concentration	166000 ± 24600 ng/g
Cc1cc(Nc2ncnc3ccc(NC4=NC(C)(C)CO4)cc23)ccc1Oc1ccn2ncnc2c1		human, plasma	oral, 300 mg, day 1, single dose alone		AUC(0-inf), mean	2260 ng·h/mL
Cc1ccc(Sc2ccccc2N2CCNCC2)c(C)c1	measured: haemoglobin decreased	healthy adult women	oral, 5 mg daily, 12 days		participants with TEAE	0%
O=C(Nc1nc2cccc(-c3ccc(CN4CCS(=O)(=O)CC4)cc3)n2n1)C1CC1	measured: gingival bleeding	human rheumatoid arthritis patients	oral, 300 mg once daily, 4 weeks, regardless of relatedness		treatment-emergent adverse events	0%
N#Cc1ccc2c(c1)[C@H]1CCCN(C(=O)c3ccc4[nH]cnc4c3)[C@H]1C2		human females	160 mg, day 15		total testosterone level	0.9 nmol/L
Cc1ccc([C@@H]2O[C@H](CO)[C@@H](O)[C@H](O)[C@H]2O)cc1Cc1ccc(-c2ccc(F)cc2)s1		Japanese type 2 diabetes patients	100 mg, day 16, 24 h urine collection	relative to: baseline	urinary magnesium excretion change	16.5 mg
O=C(Cc1ccccc1[N+](=O)[O-])Nc1ccccc1C(=O)N1CCOCC1		octanol/buffer	pH 11, known kinase inactives set		logP	1.19
O=C(O)c1cc(O)c(O)c(O)c1		male Ross broilers, serum	oral, 0.49 mg/kg BW, AUC(0-6 h) based		absolute bioavailability	57.8%
CCc1nc(C(N)=O)c(Nc2ccc(N3CCC(N4CCN(C)CC4)CC3)c(OC)c2)nc1NC1CCOCC1		mouse plasma	15 ng/mL, 22 days, -80 °C		long-term stability accuracy	96.8%
O=C(O)CCC(=O)O.[2H]C([2H])([2H])Oc1cc(C)c2[nH]ccc2c1CN1CC[C@@H](C2CC2)C[C@H]1c1ccc(C(=O)O)cc1	LC-MS/MS, mean	human, plasma	600 mg, single dose, fasting		Vd/F	128 L
OC[C@H]1OC(O)[C@H](O)[C@@H](O)[C@@H]1O (some centres unmarked)		aqueous solution	30 mM, together with: glucosamine		osmolality	26 mOsmol/kg
CCN1CCN(Cc2ccc(Nc3ncc(F)c(-c4cc(F)c5nc(C)n(C(C)C)c5c4)n3)nc2)CC1	mass balance	human, both sexes	oral, 150 mg, time not given, together with: 14C-labelled compound		fecal recovery	8.84%
CCOc1c([C@H](C)n2nc(C)c3c(N)ncnc32)cc(Cl)c(F)c1[C@@H]1CNC(=O)C1	ECG	previously treated B-cell malignancy patients	oral, 20 mg once daily, baseline below thresholds		observations with HR above 100 bpm	0%
C=CC(=O)NC1CCN(c2ncc3ncnc(Nc4ccc(Oc5ccc6c(c5)ncn6C)c(C)c4)c3n2)CC1	measured: neck pain	human male	oral, dose not given, CTCAE on-treatment AEs		adverse events incidence	6%

For quick reference, copied from above:
SMILES	test	system	setting	how to read	measurement	result
Nc1nc(NC2CC2)c2ncn([C@H]3C=C[C@@H](CO)C3)c2n1		Tat+ transgenic mouse, striatum	subcutaneous osmotic pump, dose not given, 5 d		drug concentration	166000 ± 24600 ng/g
